Published values from different studies.
± gives the spread as reported.
SLC22A8: Organic anion transporter 3 (SLC22A8, Homo sapiens, UniProt Q8TCC7)
Chain of UniProt Q8TCC7 (whole entry, looked up): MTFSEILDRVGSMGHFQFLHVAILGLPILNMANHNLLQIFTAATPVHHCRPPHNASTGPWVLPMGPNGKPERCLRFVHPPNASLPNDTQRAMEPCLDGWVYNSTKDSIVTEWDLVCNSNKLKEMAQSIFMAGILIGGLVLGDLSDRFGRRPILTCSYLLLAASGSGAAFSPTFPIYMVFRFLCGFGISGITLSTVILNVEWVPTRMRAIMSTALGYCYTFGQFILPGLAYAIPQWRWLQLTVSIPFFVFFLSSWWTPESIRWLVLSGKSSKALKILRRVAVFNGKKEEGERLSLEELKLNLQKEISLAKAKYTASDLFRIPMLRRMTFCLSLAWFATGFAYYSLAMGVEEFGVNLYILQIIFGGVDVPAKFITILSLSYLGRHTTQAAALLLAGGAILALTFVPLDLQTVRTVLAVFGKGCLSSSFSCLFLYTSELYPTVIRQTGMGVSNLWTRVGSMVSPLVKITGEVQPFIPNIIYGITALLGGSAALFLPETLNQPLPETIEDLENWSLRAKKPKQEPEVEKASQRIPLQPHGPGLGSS
CYP2C19: Cytochrome P450 2C19 (CYP2C19, Homo sapiens, UniProt P33261)
Chain of UniProt P33261 (whole entry, looked up): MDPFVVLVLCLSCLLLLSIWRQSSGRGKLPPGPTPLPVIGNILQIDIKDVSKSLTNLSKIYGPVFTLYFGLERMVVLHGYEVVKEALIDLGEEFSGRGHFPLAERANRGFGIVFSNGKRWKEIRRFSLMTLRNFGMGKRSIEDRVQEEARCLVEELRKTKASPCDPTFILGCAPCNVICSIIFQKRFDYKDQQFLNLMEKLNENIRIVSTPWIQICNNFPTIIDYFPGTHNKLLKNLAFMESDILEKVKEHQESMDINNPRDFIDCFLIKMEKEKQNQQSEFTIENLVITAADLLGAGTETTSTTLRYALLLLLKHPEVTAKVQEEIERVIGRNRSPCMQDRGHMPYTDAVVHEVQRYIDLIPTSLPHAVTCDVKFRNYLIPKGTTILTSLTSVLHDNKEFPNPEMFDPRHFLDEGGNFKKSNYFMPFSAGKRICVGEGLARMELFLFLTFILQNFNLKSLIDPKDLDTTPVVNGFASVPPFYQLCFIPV
ALB: Albumin (ALB, Homo sapiens, UniProt P02768)
CYP3A5: Cytochrome P450 3A5 (CYP3A5, Homo sapiens, UniProt P20815)
Chain of UniProt P20815 (whole entry, looked up): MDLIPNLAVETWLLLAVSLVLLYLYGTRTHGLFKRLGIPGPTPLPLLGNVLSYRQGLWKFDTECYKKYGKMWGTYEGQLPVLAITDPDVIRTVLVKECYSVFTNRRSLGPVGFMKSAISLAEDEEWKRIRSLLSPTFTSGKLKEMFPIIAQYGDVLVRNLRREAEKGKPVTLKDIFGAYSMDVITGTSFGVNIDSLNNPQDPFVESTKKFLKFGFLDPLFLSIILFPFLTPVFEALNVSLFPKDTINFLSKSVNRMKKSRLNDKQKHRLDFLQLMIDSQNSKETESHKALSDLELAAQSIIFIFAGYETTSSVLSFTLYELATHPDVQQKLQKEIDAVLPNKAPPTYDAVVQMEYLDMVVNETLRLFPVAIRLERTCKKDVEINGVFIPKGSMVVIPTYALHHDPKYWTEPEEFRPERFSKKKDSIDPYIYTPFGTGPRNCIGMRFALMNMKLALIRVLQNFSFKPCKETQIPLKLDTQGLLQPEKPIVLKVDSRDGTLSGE
Chain of UniProt Q86VL8 (whole entry, looked up): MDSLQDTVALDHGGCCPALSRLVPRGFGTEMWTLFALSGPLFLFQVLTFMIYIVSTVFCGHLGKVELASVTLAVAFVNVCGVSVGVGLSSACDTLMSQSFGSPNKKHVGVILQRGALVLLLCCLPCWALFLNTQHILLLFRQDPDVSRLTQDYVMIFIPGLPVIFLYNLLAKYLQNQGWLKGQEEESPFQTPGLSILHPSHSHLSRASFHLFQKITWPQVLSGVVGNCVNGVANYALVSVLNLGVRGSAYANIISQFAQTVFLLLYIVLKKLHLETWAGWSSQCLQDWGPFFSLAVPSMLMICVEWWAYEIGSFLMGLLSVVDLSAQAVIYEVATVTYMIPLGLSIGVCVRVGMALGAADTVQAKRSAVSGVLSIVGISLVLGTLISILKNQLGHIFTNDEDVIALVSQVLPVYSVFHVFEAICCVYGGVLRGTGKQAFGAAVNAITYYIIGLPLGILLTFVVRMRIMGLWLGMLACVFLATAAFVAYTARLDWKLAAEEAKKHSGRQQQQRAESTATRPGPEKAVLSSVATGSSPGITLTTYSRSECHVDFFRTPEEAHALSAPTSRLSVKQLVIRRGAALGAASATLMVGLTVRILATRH
Chain of UniProt Q96JM7 (whole entry, looked up): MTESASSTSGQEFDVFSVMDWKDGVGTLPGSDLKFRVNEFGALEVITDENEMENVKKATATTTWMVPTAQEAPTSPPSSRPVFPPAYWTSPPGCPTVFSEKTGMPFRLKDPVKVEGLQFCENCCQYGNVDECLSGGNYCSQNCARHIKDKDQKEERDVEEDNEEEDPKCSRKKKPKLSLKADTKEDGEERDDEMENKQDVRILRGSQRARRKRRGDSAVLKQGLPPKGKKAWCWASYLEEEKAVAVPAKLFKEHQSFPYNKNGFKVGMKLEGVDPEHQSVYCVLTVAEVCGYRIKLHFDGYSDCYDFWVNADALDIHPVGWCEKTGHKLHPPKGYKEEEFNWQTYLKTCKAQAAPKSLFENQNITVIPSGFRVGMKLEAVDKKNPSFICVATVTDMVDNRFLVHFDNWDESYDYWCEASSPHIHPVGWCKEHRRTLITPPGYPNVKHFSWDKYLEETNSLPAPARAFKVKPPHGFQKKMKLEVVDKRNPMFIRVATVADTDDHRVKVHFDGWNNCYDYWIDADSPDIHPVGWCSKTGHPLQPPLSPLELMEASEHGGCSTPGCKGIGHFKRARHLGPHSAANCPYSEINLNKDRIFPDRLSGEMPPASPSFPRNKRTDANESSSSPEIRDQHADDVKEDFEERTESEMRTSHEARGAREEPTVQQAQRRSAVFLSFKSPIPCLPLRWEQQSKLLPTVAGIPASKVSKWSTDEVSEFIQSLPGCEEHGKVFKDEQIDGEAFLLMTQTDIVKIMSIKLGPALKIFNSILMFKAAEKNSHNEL
Chain of UniProt P02763 (whole entry, looked up): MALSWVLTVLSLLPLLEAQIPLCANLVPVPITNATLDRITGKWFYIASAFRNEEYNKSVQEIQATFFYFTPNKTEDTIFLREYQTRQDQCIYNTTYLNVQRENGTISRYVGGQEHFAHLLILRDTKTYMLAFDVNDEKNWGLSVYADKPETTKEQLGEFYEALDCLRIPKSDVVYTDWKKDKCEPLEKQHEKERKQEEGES
Chain of UniProt P05177 (whole entry, looked up): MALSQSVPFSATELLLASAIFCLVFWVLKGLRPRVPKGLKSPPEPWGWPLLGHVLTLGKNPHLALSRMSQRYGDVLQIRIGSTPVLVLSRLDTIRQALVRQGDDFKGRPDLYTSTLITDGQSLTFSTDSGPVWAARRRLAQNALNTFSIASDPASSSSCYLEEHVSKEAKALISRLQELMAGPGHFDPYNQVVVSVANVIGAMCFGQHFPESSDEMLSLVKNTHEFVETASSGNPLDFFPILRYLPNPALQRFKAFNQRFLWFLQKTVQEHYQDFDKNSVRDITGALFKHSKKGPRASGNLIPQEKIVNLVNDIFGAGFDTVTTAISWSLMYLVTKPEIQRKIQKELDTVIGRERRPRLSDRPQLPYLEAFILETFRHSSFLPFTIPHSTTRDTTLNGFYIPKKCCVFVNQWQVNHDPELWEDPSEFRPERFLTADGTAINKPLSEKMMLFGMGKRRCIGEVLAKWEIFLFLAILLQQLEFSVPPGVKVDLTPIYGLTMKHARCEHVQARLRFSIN
Chain of UniProt P18031 (whole entry, looked up): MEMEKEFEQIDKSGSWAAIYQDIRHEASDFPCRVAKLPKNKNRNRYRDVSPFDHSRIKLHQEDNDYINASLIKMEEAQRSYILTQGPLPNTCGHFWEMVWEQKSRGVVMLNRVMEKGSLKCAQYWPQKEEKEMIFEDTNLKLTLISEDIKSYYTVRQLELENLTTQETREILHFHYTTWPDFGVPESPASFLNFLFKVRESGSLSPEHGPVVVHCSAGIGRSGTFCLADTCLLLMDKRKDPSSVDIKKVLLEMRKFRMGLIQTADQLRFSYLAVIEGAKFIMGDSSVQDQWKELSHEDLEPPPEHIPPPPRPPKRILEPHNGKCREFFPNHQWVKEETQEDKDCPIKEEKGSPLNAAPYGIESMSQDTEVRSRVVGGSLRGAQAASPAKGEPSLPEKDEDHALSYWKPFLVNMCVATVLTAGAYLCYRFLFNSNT

Compound	target	test	system	setting	how to read	endpoint	value
O=C(c1ccc(C(=O)N2CCC(N3CCCC3)CC2)c(Nc2ccccc2)c1)N1CCC(N2CCCC2)CC1	Lethal(3)malignant brain tumor-like protein 3, MBT domains (Homo sapiens, UniProt Q96JM7)	FRAP	human cells	1 µM	–	FRAP recovery half-time	3.6 s
NCCC(O)c1cccc(OC(=O)C2CCCCC2)c1.O=CO (stereo not shown)	porcine liver esterase	–	–	99 µM, 30 min	baseline: time 0 min	compound remaining	17%
C[C@]12CC[C@@H]3c4ccc(OS(=O)(=O)O)cc4CC[C@H]3[C@@H]1CCC2=O	SLC22A8	substrate	MDCK-II parental cells	–	–	uptake rate	0.9 pmol/min/mg protein
COc1ccc2[nH]c([S+]([O-])Cc3ncc(C)c(OC)c3C)nc2c1 (stereo not shown)	CYP2C19	–	human, plasma	oral, 20 mg, Day 14, added: encorafenib at steady state	baseline: Day -7	geometric LS mean ratio of AUClast	0.827
COC(=O)c1cc(C(C)=NNc2nc(-c3ccc(OC)cc3)cs2)ccc1O	PTPN1 (Homo sapiens, UniProt P18031)	enzyme activity, inhibitor	–	concentration not given	–	duration of inhibition	~20 min
COc1ccc2nc([S+]([O-])Cc3ncc(CO)c(OC)c3C)[nH]c2c1 (stereo not shown)	CYP2C19	–	human	oral, 20 mg, Day 14, added: encorafenib plus binimetinib	baseline: Day -7	Cmax decrease	28%
Cn1c(=O)c2c(ncn2C)n(C)c1=O	Cytochrome P450 1A2 (CYP1A2, Homo sapiens, UniProt P05177)	–	human, plasma	oral, 200 mg, day 1, alone, arithmetic mean	–	AUC(0-inf)	33900 ng·h/mL
COc1cc(O)c(CC=C(C)C)c(O)c1C(=O)/C=C/c1ccc(O)cc1	CYP2E1 (human)	enzyme activity, inhibitor	human liver microsomes	10 µM, pH 7.4, added: chlorzoxazone	–	inhibition	< 10%
Cc1cc(C)c(CNC(=O)c2cc(Cl)c3c(c2C)O[C@@](C)([C@H]2CC[C@H](N(C)C)CC2)O3)c(=O)[nH]1	ALB	ultracentrifugation	4% human serum albumin solution	600 ng/mL, 160 min	–	unbound fraction	0.621
O=C1c2ccncc2C(=O)c2c1[nH]c1ccccc21	mitochondrial complex I (human)	–	PAH hPASMC	1 µM, 48 h	–	complex I activity	no inhibition
CCc1cc(/C(C)=N/OCc2ccc(C3CCCCC3)c(C(F)(F)F)c2)ccc1CN1CC(C(=O)O)C1	SLC47A2 (Homo sapiens, UniProt Q86VL8)	inhibitor	HEK293 transfected with SLC47A2	up to 40 µM, 2 min, added: MPP+ 0.025 µM	–	maximal inhibition	13.8%
OC[C@H]1O[C@@H](Oc2cc3c(O)cc(O)cc3[o+]c2-c2ccc(O)c(O)c2)[C@H](O)[C@@H](O)[C@@H]1O	ALB	binding, fluorescence quenching	–	pH 7, 20 °C, HSA 2 µM	–	Kd	20.8 ± 1.6 µM
CCCC(CCC)C(=O)Oc1cccc(C(O)CCN)c1.O=CO (stereo not shown)	porcine liver esterase	–	–	99 µM, 60 min	baseline: time 0 min	compound remaining	74.1%
NC/C(=C\F)COc1cccc(Cn2c(=S)[nH]c(=O)c3[nH]cnc32)c1	SLC22A8	transport, inhibitor	CHO cells expressing SLC22A8	30 µM, added: CF substrate	–	inhibition	< 50%
O=C(O)COc1cccc(-c2nc(Nc3ccc4[nH]ncc4c3)c3ccccc3n2)c1	UGT2B7 (Homo sapiens, UniProt P16662)	enzyme activity, inhibitor	recombinant microsomes	added: diclofenac	–	IC50	40.5 µM
C[C@@H](Oc1ccc(S(C)(=O)=O)cc1C(=O)N1C[C@@H]2C[C@]2(c2cc(C(F)(F)F)on2)C1)C(F)(F)F	CYP3A5	recombinant CYP, depletion	phosphate buffer	pH 7.4	–	CYP contribution	3.87%
N#C[C@H](C[C@@H]1CCCNC1=O)NC(=O)[C@H](CC1CC1)NC(=O)c1cc2cccc(Cl)c2[nH]1	CYP2C19	NADPH metabolic stability	–	2 µM, pH 7.4, 100 pmol/mL enzyme	–	intrinsic clearance	0.66 µL/min/pmol
C=CC(=O)N(C)CCOc1c(N)ncnc1-c1cc(F)cc(NC(=O)c2ccc(C3CC3)cc2F)c1C	CYP3A5	–	recombinant human CYP	pH 7.4, scaled to liver microsomes	–	relative unbound intrinsic clearance	3.8 µL/min/mg
COc1cc2nc(N3CCN(C(=O)C4COc5ccccc5O4)CC3)nc(N)c2cc1OC (stereo not shown)	Alpha-1-acid glycoprotein 1, F1/S variants (ORM1, Homo sapiens, UniProt P02763)	binding, ultrafiltration competition	–	37 °C, added: [3H]tamsulosin marker	–	Ki	55.4 µM
COc1cc(-c2[o+]c3cc(O)cc(O)c3cc2O[C@@H]2O[C@H](CO)[C@@H](O)[C@H](O)[C@H]2O)ccc1O	ALB	visible absorption spectroscopy	acetonitrile–HSA system	50 µM, pH 7, added: HSA 200 µM	–	λmax	< 600 nm
CC[C@H]1[C@@H](O)[C@@H]2[C@H](CC[C@]3(C)[C@@H]([C@H](C)CCNC(=O)NS(=O)(=O)c4ccc(C(C)(C)C)cc4)CC[C@@H]23)[C@@]2(C)CC[C@@H](O)C[C@@H]12	Cytochrome P450 3A4 (CYP3A4, Homo sapiens, UniProt P08684)	–	human, plasma	10 mg, day 1, compound alone	–	CL/F mean	28.4 L/h
Cc1oc2ccccc2c1Cc1cc(I)c(OCC(=O)O)c(I)c1	KCNH2 (Homo sapiens, UniProt Q12809)	ion current, activator, whole-cell patch clamp	HEK293 expressing hERG1	10 µM, external K+ 10 mM, tail at -120 mV	–	maximal tail current amplitude	-3.91 ± 0.38 nA
CCC(CC)C(=O)Oc1cccc(C(O)CCN)c1.O=CO (stereo not shown)	porcine liver esterase	–	–	99 µM, 15 min	baseline: time 0 min	compound remaining	80%
C=CC(=O)Nc1cc(Nc2nccc(-c3cn(C)c4ccccc34)n2)c(OCC(F)(F)F)nc1N(C)CCNC	CYP3A5	substrate, recombinant enzyme	–	–	–	formation clearance	1.52 µL/min/pmol
COc1cc(O)c(CC=C(C)C)c2c1C(=O)CC(c1ccc(O)cc1)O2 (stereo not shown)	CYP2E1 (human)	enzyme activity, inhibitor	human liver microsomes	10 µM, pH 7.4, added: chlorzoxazone	–	inhibition	< 10%
C=CC(=O)N1C[C@H](Nc2ncnc3[nH]ccc23)CC[C@@H]1C	CYP3A	substrate	human, plasma	oral, single dose, added: itraconazole multiple doses	–	Tmax	48 min
O=c1[nH]c(=O)c(Cc2cccc(C(F)(F)F)c2)c([C@H]2CC[C@H](c3ccccc3)CC2)[nH]1	SLC22A8	uptake, inhibitor	HEK cells expressing SLC22A8	added: estrone-3-sulfate	–	IC50	> 1 µM
CC[C@H](C)[C@@H]([C@@H](CC(=O)N1CCC[C@H]1[C@H](OC)[C@@H](C)C(=O)N[C@@H](Cc1ccccc1)C(=O)NCCCO)OC)N(C)C(=O)[C@@H](NC(=O)[C@H](C(C)C)N(C)C)C(C)C	CYP3A5	recombinant enzyme turnover	–	1 µM	–	CLint	0.81 µL/min/pmol

For quick reference, copied from above:
Compound	target	test	system	setting	how to read	endpoint	value
COc1cc(O)c(CC=C(C)C)c(O)c1C(=O)/C=C/c1ccc(O)cc1	CYP2E1 (human)	enzyme activity, inhibitor	human liver microsomes	10 µM, pH 7.4, added: chlorzoxazone	–	inhibition	< 10%
Cc1cc(C)c(CNC(=O)c2cc(Cl)c3c(c2C)O[C@@](C)([C@H]2CC[C@H](N(C)C)CC2)O3)c(=O)[nH]1	ALB	ultracentrifugation	4% human serum albumin solution	600 ng/mL, 160 min	–	unbound fraction	0.621
